# Measured values collected from several papers.
# Lines come from different studies, so protocols differ. Several values in a cell are separate wells, animals, samples, runs or records. ± gives the spread as reported.
SMILES,target,test,system,conditions,how to read,measurement,result
Oc1ccccc1-c1n[nH]cc1-c1ccnc2ccccc12,KIN2 (Candida albicans),"kinase binding, MIB/MS competition",Candida albicans lysate,1 µM,reference: DMSO,log2 fold change,0.05
[Cl-].[Cl-].[Pt+2].[Ru+2].c1ccc(-c2nc3ccccc3nc2-c2ccccn2)nc1.c1cnc2c(c1)ccc1cccnc12.c1cnc2c(c1)ccc1cccnc12,pcDNA supercoiled plasmid,agarose gel electrophoresis,,"100 µM, photoinduced cleavage, with: 0.1 µM pcDNA",,nicked circular DNA,19.5%
CC(Nc1nc(N2CCCC2)nc2ccccc12)c1ccccc1 (stereo not shown),importin beta-1,"SREBP1 nuclear import, high content imaging",HeLa Kyoto,"0.16 µM, 3 h, with: glucose and MG132",,cells with nuclear SREBP1,85.7% and 88.3% and 91.6% and 81.3%
c1coc(-c2n[nH]cc2-c2ccnc3ccccc23)c1,MPS1 (Candida albicans),"kinase binding, MIB/MS competition",Candida albicans lysate,10 µM,reference: DMSO,log2 fold change,-0.2
Ic1ccc2nccc(NCCc3ccccc3)c2c1,CDK8/CDK19,NF-κB reporter gene,293-NFκB-Luc,"3 h, with: TNF-α 10 ng/mL",,IC50,> 5 µM
NC1(C(=O)N[C@@H](CCO)c2ccc(Cl)cc2)CCN(c2nc[nH]c3nccc2-3)CC1,Akt,inhibitor,mouse BT-474 xenograft,"intraperitoneal, 30 mg/kg",,time before decline,4 h
[Cl-].[Cl-].[Pt+2].[Ru+2].c1ccc(-c2nc3cc4ccccc4cc3nc2-c2ccccn2)nc1.c1cnc2c(c1)ccc1cccnc12.c1cnc2c(c1)ccc1cccnc12,pcDNA supercoiled plasmid,agarose gel electrophoresis,,"10 µM, photoinduced cleavage, with: 0.1 µM pcDNA",,supercoiled DNA,91.5%
O=C(C#Cc1cn(Cc2ccccc2)c(=O)[nH]c1=O)NCc1ccccc1,MMP-14,"inhibitor, colorimetric",,20 µM,,remaining MMP-14 activity,95 ± 3%
CCCN(CCC)C1CCc2ccc(O)cc2C1 (racemic),dopamine D2-like autoreceptors,"inhibition of dopamine release, agonist, fast-scan cyclic voltammetry","Mus musculus, nucleus accumbens shell slice",single pulse stimulation,,EC50,0.044 ± 0.008 µM
CCS(=O)(=O)c1nc(C2CC2)cc(C(F)(F)F)n1,importin beta-1,"SREBP1 nuclear import, high content imaging",HeLa Kyoto,"0.05 µM, 3 h, with: glucose and MG132",,cells with nuclear SREBP1,81.9% and 89.2% and 84.1% and 88.2%
C#CCOc1cc(C(=O)Nc2cc(OCCCN)c3ccccc3n2)nc(C(=O)Nc2cc(OCCCN)c3ccccc3n2)c1,c-myc G-quadruplex DNA,FRET melting,,"1 µM, pH 7.4, with: 60 mM potassium",,ΔTm,6.3 ± 0.3 K
CC[S+]([O-])c1nc(-c2ccccc2)cc(C(F)(F)F)n1 (stereo not shown),importin beta-1,"SREBP1 nuclear import, high content imaging",HeLa Kyoto,"0.16 µM, 3 h, with: glucose and MG132",,cells with nuclear SREBP1,84.4% and 83.2% and 87.9% and 90.9%
NCCCOc1cc(NC(=O)c2cc(OCc3c[nH]nn3)cc(C(=O)Nc3cc(OCCCN)c4ccccc4n3)n2)nc2ccccc12,c-myc G-quadruplex DNA,FRET melting,,"1 µM, pH 7.4, with: 60 mM potassium",,ΔTm,5.9 ± 0.3 K
CCN(CC)c1ccc(/C=N/c2ccc(Br)cc2)c(O)c1,yeast alpha-glucosidase,enzyme activity,,with: pNPG,,IC50,150 µM
NCCOc1cc(C(=O)Nc2cc(OCCN3CCCC3)c3ccccc3n2)nc(C(=O)Nc2cc(OCCN3CCCC3)c3ccccc3n2)c1,c-myc G-quadruplex DNA,FRET melting,,"1 µM, pH 7.4, with: 60 mM potassium",,ΔTm,17 ± 0.8 K
[Cl-].[Cl-].[Pt+2].[Ru+2].c1ccc(-c2nccnc2-c2ccccn2)nc1.c1cnc2c(c1)ccc1cccnc12.c1cnc2c(c1)ccc1cccnc12,pcDNA supercoiled plasmid,agarose gel electrophoresis,,"100 µM, photoinduced cleavage, with: 0.1 µM pcDNA",,nicked circular DNA,23.7%

# Excerpt of the above:
SMILES,target,test,system,conditions,how to read,measurement,result
c1coc(-c2n[nH]cc2-c2ccnc3ccccc23)c1,MPS1 (Candida albicans),"kinase binding, MIB/MS competition",Candida albicans lysate,10 µM,reference: DMSO,log2 fold change,-0.2
